Published values gathered from unrelated publications.
Protocols differ between the studies behind these lines. Values joined by “and” are separate records of one study, mostly repeats; a detail may differ. ± gives the spread as reported.

Compound | cell line | observed | technique | sample | time | setting | IC50
Cc1cc(Oc2nc(N3CC[C@@H](c4ccncc4)C3)ncc2F)[nH]n1 | HCT-15 | cell proliferation | – | colon cancer | – | – | 41700 nM
CCOc1ccccc1-n1c(CN2CCNCC2)nc2ccccc2c1=O | ASPC1 | cell growth or viability | – | – | 72 h | – | 237 nM
CC(=O)N[C@H](C(=O)N[C@@H](CCCNC(=N)N)C(=O)N[C@@H](CCCCN)C(=O)N[C@@H](CCCNC(=N)N)C(=O)N[C@H](C(=O)N[C@@H](CC(C)C)C(=O)N[C@@H](CCCNC(=N)N)C(=O)N[C@]1(C)CCCC=CCCC[C@@](C)(C(=O)N[C@@H](CCC(=O)O)C(=O)N[C@@H](CCCNC(=N)N)C(=O)N[C@@H](CCC(=O)O)C(=O)N[C@@H](CC(C)C)C(=O)N[C@H](C(=O)N[C@@H](CCC(=O)O)C(N)=O)C(C)C)NC(=O)[C@H](CC(C)C)NC(=O)[C@H](CC(C)C)NC1=O)[C@@H](C)O)C(C)C | SK-N-MC (no EGFR or ErbB2-4) | cell viability | ATP luminescence | – | 18 h | – | > 10000 nM
O=c1n(CCNCCOS(=O)(=O)c2ccccc2)c(=O)n(S(=O)(=O)c2ccccc2)c(=O)n1S(=O)(=O)c1ccccc1 | A549 | cell growth or viability | MTT | – | 48 h | – | 9.14 µg/mL
CC(=O)N[C@H](C(=O)N[C@@H](CCCNC(=N)N)C(=O)N[C@@H](CCCCN)C(=O)N[C@@H](CCCNC(=N)N)C(=O)N[C@H](C(=O)N[C@@H](CC(C)C)C(=O)N[C@@H](CCCNC(=N)N)C(=O)N[C@@]1(C)CCCC=CCCC[C@@](C)(C(=O)N[C@@H](CCCNC(=N)N)C(=O)N[C@@H](CCC(=O)O)C(=O)N[C@@H](CC(C)C)C(=O)N[C@H](C(=O)N[C@@H](CCC(=O)O)C(N)=O)C(C)C)NC(=O)[C@H](CCC(N)=O)NC(=O)[C@H](CC(C)C)NC(=O)[C@H](CC(C)C)NC1=O)[C@@H](C)O)C(C)C | H2030, wild-type EGFR | – | – | – | – | – | 2390 nM and 4470 nM
CC(=O)N[C@H](C(=O)N[C@@H](CCCNC(=N)N)C(=O)N[C@@H](CCCCN)C(=O)N[C@@H](CCCNC(=N)N)C(=O)N[C@H](C(=O)N[C@@H](CC(C)C)C(=O)N[C@@H](CCCNC(=N)N)C(=O)N[C@@]1(C)CCCC=CCCC[C@@](C)(C(=O)N[C@@H](CCCNC(=N)N)C(=O)N[C@@H](CCC(=O)O)C(=O)N[C@@H](CC(C)C)C(=O)N[C@H](C(=O)N[C@@H](CCC(=O)O)C(N)=O)C(C)C)NC(=O)[C@H](CCC(N)=O)NC(=O)[C@H](CC(C)C)NC(=O)[C@H](CC(C)C)NC1=O)[C@@H](C)O)C(C)C | H2030 (wild-type EGFR) | cell viability | ATP luminescence | – | 18 h | – | 2440 ± 880 nM
[CH3][Ti+2][O]C(=O)c1ccc([S][Au][PH](c2ccccc2)(c2ccccc2)c2ccccc2)cc1.c1cc[cH-]c1.c1cc[cH-]c1 | renal proximal tubule cells | cytotoxicity | XTT | – | 24 h | – | 3880 ± 860 nM
C1N2CN3CN1CP(C2)C3.COc1ccc(C(O)=CC(=O)c2ccc(C(C)(C)C)cc2)cc1.Cc1ccc(C(C)C)cc1.[Ru+2] | MIA PaCa-2 | cytotoxicity | – | – | – | dark | 340 nM
CC(C)C12OC1C1OC13C1(C)CCC4=C(COC4=O)C1CC1OC13C2OC(=O)CCC(=O)OC1OC(CO)C(O)C(O)C1O (stereo not shown) | sensitive human cancer cell lines | cell viability | XTT | – | – | – | 490 nM
Cc1ccc(C(C)C)cc1.Cc1ccc(C(C)C)cc1.Cc1ccc(C(C)C)cc1.Cc1ccc(C(C)C)cc1.O=S(=O)(O)C(F)(F)F.O=S(=O)(O)C(F)(F)F.O=S(=O)(O)C(F)(F)F.O=S(=O)(O)C(F)(F)F.c1ccc2c3c4ccccc4c(c2c1)-c1cn(nn1)-c1cc[n+](cc1)[Ru-]1[O]c2ccc4c5c(ccc(c25)=[O+]1)=[O+][Ru-]([O]4)[n+]1ccc(cc1)-n1cc(nn1)-c1c2ccccc2c(c2ccccc12)-c1cn(nn1)-c1cc[n+](cc1)[Ru-]1[O]c2ccc4c5c(ccc(c25)=[O+]1)=[O+][Ru-]([O]4)[n+]1ccc(cc1)-n1cc-3nn1 | HCT-15 | cell growth | MTT | – | 24 h | 20 µM preincubated in medium 0 h at 37 °C | 4300 ± 250 nM
COc1ccccc1-c1ccncc1C(=O)Nc1nnc(OCc2ccc(Cl)cc2)s1 | DLD-1 BRCA2 knockout | colony survival | – | – | – | – | ~1000 nM
CCC1=C(C)C2=C(c3ccc(P(=NC4=[O+][Ru-]([Cl])[n+]5ccccc54)(c4ccccc4)c4ccccc4)cc3)c3c(C)c(CC)c(C)n3[B-](C)(C)[N+]2=C1C.Cc1ccc(C(C)C)cc1.Cl | MCF-10A | cell growth or viability | MTT | – | – | – | 66900 nM
CC(=O)N[C@H](C(=O)N[C@@H](CCCNC(=N)N)C(=O)N[C@@H](CCCCN)C(=O)N[C@@H](CCCNC(=N)N)C(=O)N[C@H](C(=O)N[C@@H](CC(C)C)C(=O)N[C@@H](CCCNC(=N)N)C(=O)N[C@@H](CCCNC(=N)N)C(=O)N[C@]1(C)CCCC=CCCC[C@@](C)(C(=O)N[C@@H](CCCNC(=N)N)C(=O)N[C@@H](CCC(=O)O)C(=O)N[C@@H](CC(C)C)C(=O)N[C@H](C(=O)N[C@@H](CCC(=O)O)C(N)=O)C(C)C)NC(=O)[C@H](CCC(N)=O)NC(=O)[C@H](CC(C)C)NC1=O)[C@@H](C)O)C(C)C | H1975 (EGFR L858R/T790M) | cell viability | ATP luminescence | – | 18 h | – | ~60000 nM
Cc1cc(Nc2nc(C[C@@]3(C(=O)O)CCN(Cc4cccc(Cl)c4F)[C@H](C)C3)cc(C)c2F)[nH]n1 | KM 12L4 | cell growth or viability | ATP luminescence | – | 5 days | – | 63.6 nM
CC(=O)N[C@H](C(=O)N[C@@H](CCCNC(=N)N)C(=O)N[C@@H](CCCCN)C(=O)N[C@@H](CCCNC(=N)N)C(=O)N[C@]1(C)CCCCCCC=CCCC[C@@](C)(C(=O)N[C@@H](CCCNC(=N)N)C(=O)N[C@@H](CCC(=O)O)C(=O)N[C@@H](CC(C)C)C(=O)N[C@H](C(=O)N[C@@H](CCC(=O)O)C(N)=O)C(C)C)NC(=O)[C@H](CCC(N)=O)NC(=O)[C@H](CC(C)C)NC(=O)[C@H](CC(C)C)NC(=O)[C@H](CCCNC(=N)N)NC(=O)[C@H](CCCNC(=N)N)NC(=O)[C@H](CC(C)C)NC1=O)C(C)C | H2030 (wild-type EGFR) | cell viability | ATP luminescence | – | 18 h | – | 1580 ± 430 nM
CN(C)c1ccc(-c2nc3cc(C(=O)Nc4ccc(Cl)cc4)ccc3[nH]2)cc1 | HCT-116 | cell death | – | – | – | – | 3430 nM

For quick reference, copied from above:
Compound | cell line | observed | technique | sample | time | setting | IC50
CC(=O)N[C@H](C(=O)N[C@@H](CCCNC(=N)N)C(=O)N[C@@H](CCCCN)C(=O)N[C@@H](CCCNC(=N)N)C(=O)N[C@]1(C)CCCCCCC=CCCC[C@@](C)(C(=O)N[C@@H](CCCNC(=N)N)C(=O)N[C@@H](CCC(=O)O)C(=O)N[C@@H](CC(C)C)C(=O)N[C@H](C(=O)N[C@@H](CCC(=O)O)C(N)=O)C(C)C)NC(=O)[C@H](CCC(N)=O)NC(=O)[C@H](CC(C)C)NC(=O)[C@H](CC(C)C)NC(=O)[C@H](CCCNC(=N)N)NC(=O)[C@H](CCCNC(=N)N)NC(=O)[C@H](CC(C)C)NC1=O)C(C)C | H2030 (wild-type EGFR) | cell viability | ATP luminescence | – | 18 h | – | 1580 ± 430 nM
